Assay results collected from several papers.
Protocols differ between the studies behind these lines. ± marks the error that the study gave.

| Compound | cell line | effect on | method | time | notes | CC50 |
| --- | --- | --- | --- | --- | --- | --- |
| OC[C@H]1O[C@@H](Oc2cc3c(O)cc(O)cc3[o+]c2-c2ccc(O)c(O)c2)[C@H](O)[C@@H](O)[C@@H]1O | Huh-7, mock-infected |  | MTS | 4 (unit not given) |  | 59 ± 24 µM |
| CC[C@H](C)[C@@H]1NC(=O)[C@H](CC(C)C)NC(=O)[C@@](C)(NC(=O)[C@H](Cc2ccccc2)NC(=O)[C@H](Cc2ccc(O)cc2)NC(=O)[C@H](C)NC(=O)[C@@H](N)[C@@H](C)O)CCCC=CCCC[C@@](C)(C(=O)NCC(=O)N[C@@H](CCCNC(=N)N)C(=O)N[C@@H](Cc2c[nH]c3ccccc23)C(N)=O)NC(=O)[C@H](CC(C)C)NC1=O | MT-4 |  |  |  |  | 41 ± 15 µM |
| CCC1(CC)C2CC3CC(C2)CC1(NC)C3 | dog cells | cytotoxicity |  | 3 (unit not given) |  | > 100 µM |
| O=C(O[C@@H]1Cc2c(O)cc(O)cc2O[C@H]1c1ccc(O)c(O)c1)c1cc(O)c(O)c(O)c1 | Huh-7, mock-infected |  | MTS | 4 (unit not given) |  | 33.8 ± 7.9 µM |
| CC(C)C[C@H](NC(=O)[C@H](CCCCN)NC(=O)[C@H](CC(C)C)NC(=O)[C@H](CCCCN)NC(=O)[C@H](CC(C)C)NC(=O)[C@H](CCCCN)NC(=O)[C@H](C)NC(=O)[C@@H](NC(=O)[C@H](CC(C)C)NC(=O)[C@H](CCCCN)NC(=O)[C@H](CC(C)C)NC(=O)[C@H](CCCCN)NC(=O)[C@H](CC(C)C)NC(=O)[C@H](CCCCN)NC(=O)[C@@H](N)CC(C)C)[C@@H](C)O)C(N)=O | HaCaT | cell viability |  | 24 h | serum-free medium | 32.1 µM |
| C=C1CCC2C(C)(CO)C(O)CCC2(C)C1CC(SC(=S)N1CCN(Cc2cc(F)c(F)cc2F)CC1)C1=CCOC1=O (stereo not shown) | HaCaT |  | MTT | 24 h |  | 13.2 ± 2.25 µM |
| CN(Cc1ccccc1)CC12C3CCC4C3C3C(CCC31)C42 | dog cells | cytotoxicity |  | 3 (unit not given) |  | 0.04 µM |
| CONC(=O)[C@H]1[C@@H](O)[C@@]2(O)c3c(OC)cc(OC)cc3O[C@@]2(c2ccc(OC)cc2)[C@@H]1c1ccccc1 | murine hepatocytes, mock-infected | cytotoxicity |  |  |  | > 5 µM |
| O=C(COc1ccc2c(c1O)C(=O)c1ccccc1C2=O)c1ccccc1 | MT2 | cell growth or viability |  |  |  | ~40 µM |
| CC(C)=CCC/C(C)=C/CC/C(C)=C/CNCCOC1C2CC3CC(C2)CC1C3 (stereo not shown) | HEK-293T | cell growth or viability |  |  |  | 11 mg/L |
| C1CC2C3C4C5CCC4C24CNCC54C13 | dog cells | cytotoxicity |  | 3 (unit not given) |  | ≥ 100 µM |
| O=C(NCc1cccc(F)c1F)c1cn(Cc2ccc(F)cc2)cc(O)c1=O | HFF | cell growth or viability | MTS | 7 days |  | 13 µM |
| CC(N)C12C3CCC4C3C3C(CCC31)C42 (stereo not shown) | dog cells | cytotoxicity |  | 3 (unit not given) |  | ≥ 100 µM |
| C1=[N+]2CCCC[N+]3=Cc4ccc5[n]4[Au-]23[n]2c1ccc2-c1nc2ccccc2nc1-5.F[P-](F)(F)(F)(F)F | melanoma cancer cell lines |  |  |  | NCI60 panel mean | > 100 µM |
| CC(=N)NCC12C3CCC4C3C3C(CCC31)C42 | dog cells | cytotoxicity |  | 3 (unit not given) |  | > 100 µM |
| COC(=O)c1cn(Cc2ccc(F)cc2)cc(OC)c1=O | HFF | cell growth or viability | MTS | 7 days |  | > 50 µM |

Some of these lines once more:
| Compound | cell line | effect on | method | time | notes | CC50 |
| --- | --- | --- | --- | --- | --- | --- |
| CC(C)C[C@H](NC(=O)[C@H](CCCCN)NC(=O)[C@H](CC(C)C)NC(=O)[C@H](CCCCN)NC(=O)[C@H](CC(C)C)NC(=O)[C@H](CCCCN)NC(=O)[C@H](C)NC(=O)[C@@H](NC(=O)[C@H](CC(C)C)NC(=O)[C@H](CCCCN)NC(=O)[C@H](CC(C)C)NC(=O)[C@H](CCCCN)NC(=O)[C@H](CC(C)C)NC(=O)[C@H](CCCCN)NC(=O)[C@@H](N)CC(C)C)[C@@H](C)O)C(N)=O | HaCaT | cell viability |  | 24 h | serum-free medium | 32.1 µM |
| C=C1CCC2C(C)(CO)C(O)CCC2(C)C1CC(SC(=S)N1CCN(Cc2cc(F)c(F)cc2F)CC1)C1=CCOC1=O (stereo not shown) | HaCaT |  | MTT | 24 h |  | 13.2 ± 2.25 µM |
| CN(Cc1ccccc1)CC12C3CCC4C3C3C(CCC31)C42 | dog cells | cytotoxicity |  | 3 (unit not given) |  | 0.04 µM |
